Results of several laboratories.
Each line is one published result; not all experiments were run side by side. Numbers after ± are the reported error. Values after ≈ are worked out from the molar mass of the structure shown.

Molecule	organism	assay	system	conditions	scale	quantity	result
CCCCCOc1c(OC)cc(NC(C)CCCNC(=O)C(N)CCCCN)c2nc(C(C)(C)C)ccc12 (stereo not drawn)	Staphylococcus aureus		MRSA ATCC 33591			MBC	> 20 µg/mL
TFFRLFNRSFTGRRRRSVQWCA	Streptococcus sanguis	OD600	peptide, ATCC 49295, 4 h single-species biofilm	128 µg/ml, 5 min exposure, OD600 read over 5 h		biofilm growth	no effect
C[C@@H]1C[C@H]2[C@@H]3CCC4=CC(=O)C=C[C@]4(C)[C@@]3(F)[C@@H](O)C[C@]2(C)[C@@]1(O)C(=O)CO	Danio rerio	GRE luciferase reporter		20 µM, 9 h		earliest stage with reporter increase	2 dpf
CC1CCCCN1CCCNC(=O)c1ccc2c(=O)n(CCc3ccccc3)c(=O)[nH]c2c1 (stereo not drawn)	Hepatitis C virus	HCV infection, Gaussia luciferase reporter	Huh7.5.1 reporter cells		baseline: 10 µM cyclosporin A, DMSO, negative means inhibition	maximal response	-67.8%
CCCCCCCOc1c(OC)cc(NC(C)CCCNC(=O)C(N)CCCCN)c2nc(C(C)(C)C)ccc12 (stereo not drawn)	Staphylococcus aureus		MRSA ATCC 33591			MBC	> 20 µg/mL
CC(=NNC(=O)CN1c2c(-c3ccccc3)n[nH]c2-c2ccccc2S1(=O)=O)c1ccc[nH]1	HIV-1	viral replication	PBMC			EC90	> 100 µM
CC[C@H](C)[C@H](NC(=O)[C@H](CCCCN)NC(=O)[C@H](CCC(=O)O)NC(=O)[C@H](CCCCN)NC(=O)[C@H](CO)NC(=O)[C@H](CCCCN)NC(=O)[C@H](CCCNC(=N)N)NC(=O)[C@H](Cc1ccccc1)NC(=O)[C@H](Cc1ccccc1)NC(=O)[C@H](CC(=O)O)NC(=O)CNC(=O)[C@H](CC(C)C)NC(=O)[C@@H](N)CC(C)C)C(=O)NCC(=O)N[C@@H](CCCCN)C(=O)N[C@@H](CCC(=O)O)C(=O)N[C@@H](Cc1ccccc1)C(=O)N[C@@H](CCCCN)C(=O)N[C@@H](CCCNC(=N)N)C(=O)N[C@H](C(=O)N[C@H](C(=O)N[C@@H](CCC(N)=O)C(=O)N[C@@H](CCCNC(=N)N)C(=O)N[C@H](C(=O)N[C@@H](CCCCN)C(=O)N[C@@H](CC(=O)O)C(=O)N[C@@H](Cc1ccccc1)C(=O)N[C@@H](CC(C)C)C(=O)N[C@@H](CCCNC(=N)N)C(=O)N[C@@H](CC(N)=O)C(=O)N[C@@H](CC(C)C)C(=O)N[C@H](C(=O)N1CCC[C@H]1C(=O)N[C@@H](CCCNC(=N)N)C(=O)N[C@H](C(=O)N[C@@H](CCC(=O)O)C(=O)N[C@@H](CO)C(=O)O)[C@@H](C)O)C(C)C)[C@@H](C)CC)C(C)C)[C@@H](C)CC	Staphylococcus aureus		JE2 SAUSA300_0645 graR transposon mutant	12.5% TSB	baseline: wild type over mutant	MIC ratio	2 fold
insulin human	EcoHIV	radial arm water maze	infected C57BL/6J mice	intranasal, dose not given, single dose		duration of cognitive benefit	~24 h
CP(=O)(O)CCC(N)C(=O)O (stereo not drawn)	Lolium perenne			500 g/ha, 13 days, LOLPE, post-emergence spray	baseline: untreated (0%), complete kill (100%)	herbicidal activity	70%
CC(=O)OC[C@]12Oc3ccc(-c4ccc(O)c5c4O[C@@]4(COC(C)=O)C(=C(O)C[C@@H](C)[C@H]4OC(C)=O)C5=O)c(O)c3C(=O)C1=C(O)C[C@@H](C)[C@H]2OC(C)=O	Phyllosticta citricarpa		Citrus sinensis leaf discs	10000 µg/mL, 504 h, methanol solution		pycnidia count	73 ± 6
CC(C)C[C@H](NC(=O)[C@H](C)NC(=O)[C@H](CCCCN)NC(=O)[C@H](C)NC(=O)[C@H](CC(C)C)NC(=O)[C@H](CCCCN)NC(=O)[C@H](CC(C)C)NC(=O)[C@H](Cc1c[nH]c2ccccc12)NC(=O)[C@H](CC(C)C)NC(=O)[C@@H]1CCCN1C(=O)[C@H](C)NC(=O)[C@H](CC(C)C)NC(=O)[C@H](CC(C)C)NC(=O)[C@H](CCCCN)NC(=O)[C@H](CC(C)C)NC(=O)[C@H](C)NC(=O)[C@H](CCCCN)NC(=O)[C@H](C)NC(=O)[C@H](CC(C)C)NC(=O)[C@H](CCCCN)NC(=O)[C@@H](N)CCCCN)C(=O)N[C@@H](CCCCN)C(=O)N[C@@H](CCCCN)C(=O)N[C@@H](C)C(N)=O	Pseudomonas aeruginosa	broth microdilution	PAO1	overnight, 37 °C		MIC50	0.86 ± 0.09 µM (≈ 2.29 µg/mL)
TDVDHVFLRF-OH (C-acid)	Drosophila melanogaster	gut contraction	peptide, wandering third instar larval gut	injection, 1 µM, within 10 min	baseline: DMS effect	inhibition	19%
CCCCCCOc1c(OC)cc(NC(C)CCCNC(=O)C(N)CCCN)c2nc(C(C)(C)C)ccc12 (stereo not drawn)	Staphylococcus aureus		MRSA ATCC 33591			MBC	> 20 µg/mL
TRTRVSRLY	rhesus rotavirus		peptide, mouse cholangiocytes	0.5 mM, 18 h, 37 °C	baseline: medium control	viral yield	70%
O=C(CN1c2c(n[nH]c2-c2cccc(Cl)c2)-c2ccccc2S1(=O)=O)NN=Cc1ccc([N+](=O)[O-])cc1	HIV-1	viral replication	PBMC			EC90	20.4 µM

Repeated from above:
Molecule	organism	assay	system	conditions	scale	quantity	result
CCCCCCCOc1c(OC)cc(NC(C)CCCNC(=O)C(N)CCCCN)c2nc(C(C)(C)C)ccc12 (stereo not drawn)	Staphylococcus aureus		MRSA ATCC 33591			MBC	> 20 µg/mL
